Experimental data collected from several papers.
Compare with care: the assays were run in different laboratories. ± gives the spread as reported.

COC1CN([C@H]2CC[C@H]([C@@]3(C)Oc4c(Cl)cc(C(=O)NCc5c(SC)cc(C)[nH]c5=O)c(C)c4O3)CC2)C1 — log2 fold change (RNA-seq, refers to: SORCS2; human, whole blood; dose not given, 24 h; relative to: pretreatment baseline): 1.81
C=CC(=O)N1[C@@H](c2ccc3c(c2)OCO3)c2[nH]c3ccccc3c2C[C@H]1C(=O)N1CCN(C)CC1 — log2 fold change (CCNE1 WT-3xFLAG:CDK2 complex; co-IP TMT proteomics, refers to: CDKN1A; HEK-293T; 20 µM, 6 h; relative to: DMSO): 0.2
Cc1ncsc1-c1ccc(C(C)NC(=O)C2CC(O)CN2C(=O)C(NC(=O)CCCCCCCCCCN2CCCC(Nc3ncc(Cl)c(Nc4ccccc4S(=O)(=O)C(C)C)n3)C2)C(C)(C)C)cc1 (stereo not shown) — log2 fold change (22Rv1; RNA-seq, refers to: LINC01006 mRNA; concentration not given; relative to: DMSO): -1
C[n+]1ccc(/C=N/NC(=O)c2ccc3ccc(C(=O)N/N=C/c4cc[n+](C)cc4)nc3n2)cc1 — ΔTm (MYC parallel G4 DNA; FRET melting; 1 µM, DNA 0.2 µM, together with: duplex DNA competitor 10 µM): 4.4 ± 0.2 °C
C=CC(=O)Nc1cccc(Cn2ncc3cnc(Nc4cnn(CCOC)c4)nc32)c1 — percent of control (MAP3K3 human; binding, KINOMEscan; 100 nM; lower = stronger binding): 100%
CC(C)(C)c1cc(-c2ccc3cccnc3n2)nc(-c2ccc3cccnc3n2)c1.[Cl-].[Cl-].[Ru+2].c1cnc2c(c1)ccc1cccnc12 — phototherapeutic index (A-375; visible light 100 J/cm2; relative to: dark EC50 over light EC50): 3
C[n+]1cc(/C=N/NC(=O)c2cccc(C(=O)N/N=C/c3cc4ccccc4[n+](C)c3)n2)cc2ccccc21 — ΔTm (hp2 hairpin duplex DNA; FRET melting; 1 µM, together with: ds26 10 µM): 0.6 ± 0.3 °C
CN1CCCNC(=O)c2cccc(c2)C(=O)NCCCN(C)CCCNc2cccc3c2C(=O)c2cccc(c2C3=O)NCCC1 — log2 fold change (SAS; RNA-Seq, refers to: MERTK mRNA; 1 µM, 6 h; relative to: untreated cells): 6.71
COC1OC(C)C(O)C(OC2OC(C)C(O)C(OC3OC(C)C(O)C(OC4OC(C)C(O)C(OC5OC(C)C(O)C(OC6OC(C)C(O)C(OC7OC(C)C(O)C(OC8OC(C)C(O)C(OC9OC(C)C(O)C(OC%10OC(C)C(O)C(OC%11OC(C)C(O)C(OC%12OC(C)C(O)C(OS(=O)(=O)O)C%12OS(=O)(=O)O)C%11OS(=O)(=O)O)C%10OS(=O)(=O)O)C9OS(=O)(=O)O)C8OS(=O)(=O)O)C7OS(=O)(=O)O)C6OS(=O)(=O)O)C5OS(=O)(=O)O)C4OS(=O)(=O)O)C3OS(=O)(=O)O)C2OS(=O)(=O)O)C1OS(=O)(=O)O (stereo not shown) — prothrombin time prolongation (human plasma; 128 µg/mL; relative to: control): 0.96 fold
O=C(N/N=C/c1cc[n+](Cc2ccccc2)c2ccccc12)c1cccc(C(=O)N/N=C/c2cc[n+](Cc3ccccc3)c3ccccc23)c1 — ΔTm (hp2 hairpin duplex DNA; FRET melting; 1 µM): 0.9 ± 0.1 °C
O=C(CSc1cccc[n+]1[O-])c1ccccc1Br — EC50 (Mus musculus; gene silencing, high-content imaging; LDR reporter GFP cells; confirmation, mean of two runs): 28.2 µM
Nc1ncc(-c2cc(-c3cnn(CC(F)(F)F)c3)ncc2F)nc1C(=O)NC1CNCC(F)C1 (stereo not shown) — remaining binding (PFTK1; KINOMEscan; 1 µM; relative to: DMSO control): 98%
C[n+]1cc(/C=N/NC(=O)N/N=C/c2cc3ccccc3[n+](C)c2)cc2ccccc21 — ΔTm (MYC parallel G4 DNA; FRET melting; 1 µM, DNA 0.2 µM, together with: duplex DNA competitor 10 µM): 4.3 ± 0.2 °C
CNS(=O)(=O)Nc1nccc(Cc2c(C)c3ccc(Oc4ncccc4F)cc3oc2=O)c1F — IC50 (LC-2-ad; cell viability, CellTiter-Glo; 7 days): > 1000 nM
C[n+]1ccc(/C=N/NC(=O)N/N=C/c2cc[n+](C)cc2)cc1 — ΔTm (MYC parallel G4 DNA; FRET melting; 1 µM, DNA 0.2 µM, together with: duplex DNA competitor 10 µM): 3.2 ± 0.3 °C
Oc1c(/N=N/c2ccccn2)ccc2ccccc12 — Emax (Mus musculus; gene silencing, high-content imaging; LDR reporter GFP cells; 30 h, confirmation, mean of two runs): 75%

Some of these lines once more:
O=C(N/N=C/c1cc[n+](Cc2ccccc2)c2ccccc12)c1cccc(C(=O)N/N=C/c2cc[n+](Cc3ccccc3)c3ccccc23)c1 — ΔTm (hp2 hairpin duplex DNA; FRET melting; 1 µM): 0.9 ± 0.1 °C
O=C(CSc1cccc[n+]1[O-])c1ccccc1Br — EC50 (Mus musculus; gene silencing, high-content imaging; LDR reporter GFP cells; confirmation, mean of two runs): 28.2 µM
